Measurements gathered from unrelated publications.
A part holds a random share of what one study measured. Values joined by “and” are separate records of one study, mostly repeats; a detail may differ.
Chain of UniProt P23458 (whole entry, looked up): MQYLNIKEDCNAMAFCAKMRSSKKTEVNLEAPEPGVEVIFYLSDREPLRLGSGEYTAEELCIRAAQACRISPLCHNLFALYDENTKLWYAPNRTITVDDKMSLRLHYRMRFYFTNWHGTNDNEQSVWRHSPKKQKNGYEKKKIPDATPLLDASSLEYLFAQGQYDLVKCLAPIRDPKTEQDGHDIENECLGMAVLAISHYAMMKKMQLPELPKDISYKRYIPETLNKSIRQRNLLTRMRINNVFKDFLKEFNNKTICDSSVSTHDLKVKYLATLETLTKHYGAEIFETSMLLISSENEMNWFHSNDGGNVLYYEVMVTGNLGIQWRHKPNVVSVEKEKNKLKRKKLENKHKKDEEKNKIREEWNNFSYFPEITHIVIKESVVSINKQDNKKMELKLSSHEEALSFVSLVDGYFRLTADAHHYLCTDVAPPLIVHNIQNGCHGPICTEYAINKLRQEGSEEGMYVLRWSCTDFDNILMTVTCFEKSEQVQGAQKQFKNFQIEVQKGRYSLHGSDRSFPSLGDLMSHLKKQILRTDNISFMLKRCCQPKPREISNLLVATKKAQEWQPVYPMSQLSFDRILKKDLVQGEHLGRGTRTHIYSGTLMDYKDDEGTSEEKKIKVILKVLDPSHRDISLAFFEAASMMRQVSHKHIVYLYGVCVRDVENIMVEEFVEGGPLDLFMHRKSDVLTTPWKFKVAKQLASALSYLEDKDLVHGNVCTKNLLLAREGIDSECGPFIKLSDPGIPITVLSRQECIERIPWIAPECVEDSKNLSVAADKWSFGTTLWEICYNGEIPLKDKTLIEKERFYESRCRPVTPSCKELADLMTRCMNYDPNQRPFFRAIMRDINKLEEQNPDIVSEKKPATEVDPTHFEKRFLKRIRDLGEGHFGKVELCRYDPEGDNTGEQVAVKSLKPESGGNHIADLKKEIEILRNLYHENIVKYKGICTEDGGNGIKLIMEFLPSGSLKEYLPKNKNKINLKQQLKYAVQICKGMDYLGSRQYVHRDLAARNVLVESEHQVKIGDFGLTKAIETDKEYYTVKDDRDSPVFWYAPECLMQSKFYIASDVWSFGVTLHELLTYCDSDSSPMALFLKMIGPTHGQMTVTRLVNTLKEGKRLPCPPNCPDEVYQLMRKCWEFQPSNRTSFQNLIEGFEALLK
Chain of UniProt Q8N5S9 (whole entry, looked up): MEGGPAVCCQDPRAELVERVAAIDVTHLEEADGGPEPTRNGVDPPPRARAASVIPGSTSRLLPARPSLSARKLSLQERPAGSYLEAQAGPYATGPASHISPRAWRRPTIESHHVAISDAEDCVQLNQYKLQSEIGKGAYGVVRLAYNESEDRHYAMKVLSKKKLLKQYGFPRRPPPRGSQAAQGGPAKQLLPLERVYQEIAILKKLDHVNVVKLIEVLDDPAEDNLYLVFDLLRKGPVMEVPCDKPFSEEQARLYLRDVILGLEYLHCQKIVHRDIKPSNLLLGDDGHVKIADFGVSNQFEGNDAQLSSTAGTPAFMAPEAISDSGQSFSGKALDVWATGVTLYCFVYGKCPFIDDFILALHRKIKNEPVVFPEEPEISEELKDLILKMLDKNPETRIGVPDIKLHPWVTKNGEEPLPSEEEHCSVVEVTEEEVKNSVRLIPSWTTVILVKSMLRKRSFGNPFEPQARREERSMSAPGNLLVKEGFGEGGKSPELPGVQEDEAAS
Chain of UniProt Q9H0K1 (whole entry, looked up): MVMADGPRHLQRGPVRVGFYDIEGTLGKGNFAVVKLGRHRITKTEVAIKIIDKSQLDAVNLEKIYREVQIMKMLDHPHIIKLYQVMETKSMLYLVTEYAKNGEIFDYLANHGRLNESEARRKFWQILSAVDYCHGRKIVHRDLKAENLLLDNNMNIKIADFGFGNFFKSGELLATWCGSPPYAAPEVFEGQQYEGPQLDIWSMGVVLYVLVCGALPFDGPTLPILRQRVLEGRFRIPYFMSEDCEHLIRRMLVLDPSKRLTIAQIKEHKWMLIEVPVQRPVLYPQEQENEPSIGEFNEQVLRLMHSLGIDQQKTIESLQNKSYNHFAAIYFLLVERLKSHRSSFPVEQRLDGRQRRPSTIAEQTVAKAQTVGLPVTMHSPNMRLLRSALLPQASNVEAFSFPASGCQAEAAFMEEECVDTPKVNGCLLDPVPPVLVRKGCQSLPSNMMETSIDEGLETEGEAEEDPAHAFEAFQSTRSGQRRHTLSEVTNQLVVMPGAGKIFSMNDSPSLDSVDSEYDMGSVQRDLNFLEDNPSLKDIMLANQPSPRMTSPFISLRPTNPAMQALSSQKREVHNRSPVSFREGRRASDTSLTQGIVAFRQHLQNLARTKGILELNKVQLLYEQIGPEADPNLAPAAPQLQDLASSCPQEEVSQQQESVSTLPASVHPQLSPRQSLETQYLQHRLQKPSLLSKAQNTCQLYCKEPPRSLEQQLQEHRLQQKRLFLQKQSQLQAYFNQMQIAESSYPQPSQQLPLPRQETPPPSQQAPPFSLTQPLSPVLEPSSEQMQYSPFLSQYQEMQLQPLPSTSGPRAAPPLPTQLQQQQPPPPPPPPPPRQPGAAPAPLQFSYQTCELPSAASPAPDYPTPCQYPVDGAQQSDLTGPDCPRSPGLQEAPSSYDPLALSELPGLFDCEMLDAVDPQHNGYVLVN
Chain of UniProt P08069 (whole entry, looked up): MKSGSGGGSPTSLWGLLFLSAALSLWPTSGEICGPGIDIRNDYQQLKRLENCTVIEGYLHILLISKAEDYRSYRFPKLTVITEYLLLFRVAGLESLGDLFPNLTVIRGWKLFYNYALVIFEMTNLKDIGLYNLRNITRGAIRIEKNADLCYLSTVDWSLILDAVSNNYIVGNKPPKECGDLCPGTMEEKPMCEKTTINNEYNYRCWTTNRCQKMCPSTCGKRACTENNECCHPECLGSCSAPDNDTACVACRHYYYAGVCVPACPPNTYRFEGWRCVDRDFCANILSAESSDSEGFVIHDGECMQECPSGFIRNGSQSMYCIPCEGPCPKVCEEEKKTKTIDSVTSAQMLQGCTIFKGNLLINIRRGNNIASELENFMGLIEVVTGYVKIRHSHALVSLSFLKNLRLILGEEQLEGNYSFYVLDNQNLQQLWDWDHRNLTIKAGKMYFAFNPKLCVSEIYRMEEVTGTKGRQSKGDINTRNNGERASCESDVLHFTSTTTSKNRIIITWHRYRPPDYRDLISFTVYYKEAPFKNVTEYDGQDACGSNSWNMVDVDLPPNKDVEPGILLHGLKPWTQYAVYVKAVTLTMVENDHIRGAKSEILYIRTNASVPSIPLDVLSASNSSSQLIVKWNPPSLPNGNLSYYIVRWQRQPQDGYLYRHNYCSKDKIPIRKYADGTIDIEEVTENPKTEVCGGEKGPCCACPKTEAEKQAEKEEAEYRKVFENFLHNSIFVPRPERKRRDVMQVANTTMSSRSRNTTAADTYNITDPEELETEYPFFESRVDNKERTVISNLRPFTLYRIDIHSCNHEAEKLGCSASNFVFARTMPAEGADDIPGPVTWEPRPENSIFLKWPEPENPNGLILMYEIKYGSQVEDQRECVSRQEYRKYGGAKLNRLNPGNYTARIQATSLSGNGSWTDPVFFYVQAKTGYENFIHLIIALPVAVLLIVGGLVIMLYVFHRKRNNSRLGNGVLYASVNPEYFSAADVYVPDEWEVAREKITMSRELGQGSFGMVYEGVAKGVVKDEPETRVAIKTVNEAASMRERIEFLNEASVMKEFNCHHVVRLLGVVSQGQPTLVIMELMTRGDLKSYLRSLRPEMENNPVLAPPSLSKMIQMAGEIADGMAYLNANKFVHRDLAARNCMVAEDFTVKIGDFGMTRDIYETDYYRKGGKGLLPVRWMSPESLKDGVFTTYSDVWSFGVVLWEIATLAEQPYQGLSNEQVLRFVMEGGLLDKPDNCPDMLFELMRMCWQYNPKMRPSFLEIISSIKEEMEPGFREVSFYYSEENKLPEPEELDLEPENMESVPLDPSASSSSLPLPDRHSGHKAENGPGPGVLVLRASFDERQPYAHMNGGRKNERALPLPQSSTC
Chain of UniProt Q9NQU5 (whole entry, looked up): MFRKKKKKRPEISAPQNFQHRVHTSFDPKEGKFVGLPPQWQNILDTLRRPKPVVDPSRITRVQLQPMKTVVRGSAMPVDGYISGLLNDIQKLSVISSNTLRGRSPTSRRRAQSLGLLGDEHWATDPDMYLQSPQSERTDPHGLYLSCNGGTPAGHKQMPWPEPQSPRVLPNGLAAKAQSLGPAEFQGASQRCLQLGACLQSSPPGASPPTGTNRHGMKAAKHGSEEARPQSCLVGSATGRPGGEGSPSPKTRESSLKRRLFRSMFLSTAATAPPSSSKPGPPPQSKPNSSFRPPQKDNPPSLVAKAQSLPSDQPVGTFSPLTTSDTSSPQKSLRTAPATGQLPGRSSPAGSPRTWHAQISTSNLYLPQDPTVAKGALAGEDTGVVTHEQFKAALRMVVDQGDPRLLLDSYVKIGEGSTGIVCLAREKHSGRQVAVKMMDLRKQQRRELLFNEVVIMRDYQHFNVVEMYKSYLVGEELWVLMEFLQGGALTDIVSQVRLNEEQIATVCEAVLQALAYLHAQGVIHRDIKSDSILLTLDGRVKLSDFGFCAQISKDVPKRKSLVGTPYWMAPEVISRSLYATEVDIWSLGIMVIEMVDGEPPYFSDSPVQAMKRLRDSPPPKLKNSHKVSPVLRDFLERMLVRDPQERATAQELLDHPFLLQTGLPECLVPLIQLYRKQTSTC

Block 1 — technique: phase 2a clinical trial
Structure (SMILES): CC(C)n1cnc(-c2ccc(F)cc2)c1-c1ncc(C(=O)Nc2ccc(N3CCN(C)CC3)cc2)[nH]1
Species: patients with idiopathic pulmonary fibrosis
It gave 0% for “patients with treatment-emergent adverse events” (measured: electrocardiogram high voltage; 60 mg once daily, Grade 3).
It gave 0% for “patients with treatment-emergent adverse events” (measured: left bundle branch block; dose not given, Grade 3, all drug arms).
measured: electrocardiogram QT prolonged; 60 mg once daily, Grade 3 — “patients with treatment-emergent adverse events”: 0%.
The “patients with treatment-emergent adverse events” was 0% (measured: first degree atrioventricular block; 60 mg once daily, Grade 4).
The “patients with treatment-emergent adverse events” was 0% (measured: C-reactive protein increased; dose not given, Grade 2, all drug arms total).
measured: protein urine present; 60 mg once daily, Grade 2 — “patients with treatment-emergent adverse events”: 0%.
The “patients with treatment-emergent adverse events” was 0% (measured: carbon dioxide decreased; 60 mg once daily, Grade 5).

Block 2 — cell line: mouse MPNST tumor cells; technique: high-content nuclear imaging; measured: cell number; concentration: 10 µM; time: 12 h; setting: mean of 2 replicates; relative to: plate mean; reading: higher = more cells
With O=C(Nc1cccnc1)N1CCC(Cc2cccc(Oc3ccc(C(F)(F)F)cn3)c2)CC1 the nuclei count was 0.327 z-score.
For COCCOC(=O)C1=C(C)NC(C)=C(C(=O)OC/C=C/c2ccccc2)C1c1cccc([N+](=O)[O-])c1 (centres unmarked), the nuclei count was 2.72 z-score and 3.58 z-score.
NC[C@H]1O[C@H](O[C@H]2[C@H](O)[C@@H](O[C@H]3O[C@H](CO)[C@@H](O)[C@H](N)[C@H]3O)[C@H](N)C[C@@H]2N)[C@H](N)C[C@@H]1O gave a nuclei count of -0.548 z-score.
Cc1ccc(OCCSc2ncccn2)c(Br)c1 gave a nuclei count of 0.74 z-score.
For CNC(=O)c1cc(Oc2ccc(NC(=O)Nc3ccc(Cl)c(C(F)(F)F)c3)cc2)ccn1, the nuclei count was -0.164 z-score.
For O=C(NCc1ccco1)c1ccc2c(c1)N(Cc1c(F)cccc1Cl)C(=O)CS2, the nuclei count was 0.861 z-score.

Block 3 — effect on: binding; technique: radioligand binding; concentration: 10 µM
Target: Alpha-2C adrenergic receptor (ADRA2C, Homo sapiens, UniProt P18825)
Chain of UniProt P18825 (whole entry, looked up): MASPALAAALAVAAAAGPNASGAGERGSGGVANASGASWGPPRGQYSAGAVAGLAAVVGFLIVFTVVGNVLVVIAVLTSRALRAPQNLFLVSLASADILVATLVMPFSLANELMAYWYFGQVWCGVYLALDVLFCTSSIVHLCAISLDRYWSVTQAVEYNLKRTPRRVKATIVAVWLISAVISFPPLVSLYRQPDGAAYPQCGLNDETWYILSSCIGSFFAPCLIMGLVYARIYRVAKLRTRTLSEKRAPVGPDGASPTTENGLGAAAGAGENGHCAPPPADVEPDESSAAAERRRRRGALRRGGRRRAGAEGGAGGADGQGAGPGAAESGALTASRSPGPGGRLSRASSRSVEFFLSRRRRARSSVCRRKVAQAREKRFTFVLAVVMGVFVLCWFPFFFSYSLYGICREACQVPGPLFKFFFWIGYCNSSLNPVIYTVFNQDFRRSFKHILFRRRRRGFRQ
With Cc1c(N2CCCC2)nc2ccc(Br)cc2c1C(=O)NC[C@H](CCC(=O)O)c1ccccc1Cl the inhibition was 16.1%.
For Nc1c(C(=O)NCc2ccc(C(=O)NCCCC3CCCCC3)cc2)cnn1-c1ccccc1, the inhibition was 18.1%.
COCCc1ccc(-c2c(C)nc3c(N4CCOCC4)ccnn23)cn1 gave an inhibition of 41.3%.
The inhibition of CC(=O)c1c(NS(C)(=O)=O)c2cc(-c3ccc(Cl)cc3)c(-c3ccc(Cl)cc3Cl)nc2n(C)c1=O is reported as 78.9%.
For CN1C(=O)[C@@H](N2CCc3cn(Cc4ccccc4)nc3C2=O)COc2ccccc21, the inhibition was 34.7%.
C[C@H](NC(=O)c1cnc2n1[C@](C)(Cc1ccc(C#N)cc1)C(=O)N2c1cc(Cl)c(F)c(Cl)c1)C(=O)NC1(c2ccccn2)CC1 gave an inhibition of 0.16%.
O=C([C@H]1C[C@H](O)CN1c1ccc(Cl)cc1)N1CC2COCC(C1)N2Cc1ccc(Cl)cc1 has an inhibition of 14.4%.
COc1nc2ccc([C@@](O)(c3ccccc3)C3CCN(C(C)=O)CC3)cc2c(Cl)c1Cc1ccc(-n2cccn2)cc1 gave an inhibition of 39.8%.
With O=C1c2ccc(Nc3ccc(F)cc3F)cc2CCc2ccc(OC[C@H](O)CO)cc21 the inhibition was 10.8%.
For CNC(=O)Nc1ccc2c(c1)[C@]1(CC2)OC(=O)N(CC(=O)N(Cc2ccc(F)cc2)[C@@H](C)C(F)(F)F)C1=O, the inhibition was 8.88%.
Cc1c[nH]c2nccc(Oc3c(F)cc(Nc4cc(Cl)nc(N)n4)cc3F)c12 gave an inhibition of -10.9%.
With CC1=C(C#N)[C@@H](c2ccc3[nH]nc(C)c3c2)C(C#N)=C(c2ccc(Cl)cc2)N1 the inhibition was -1.57%.
CS(=O)(=O)NCC[C@H](NC(=O)c1cncc2c1cnn2-c1ccc(F)cc1)c1ccnc(S(C)(=O)=O)c1 has an inhibition of -2.08%.
CN(C)C(=O)Cn1cc(-c2nc([C@@](C)(c3ccc(-c4cnc(N)nc4)cc3)C3CC3)no2)cn1 has an inhibition of -10.5%.
CN([C@@H]1CCc2c(CC(=O)O)c3cc(S(C)(=O)=O)ccc3n2C1)S(=O)(=O)c1ccc(F)cc1 has an inhibition of -13.5%.
CC1=C(C#N)C(c2ccc3c(c2)c(NC(=O)c2ccccc2C)nn3C)C(C#N)=C(C)N1 has an inhibition of 10.2%.
For CCOC(=O)c1cc2cc(-c3cc(C(=O)NCc4ccc(C(=O)O)cc4)nn3C)ccc2[nH]1, the inhibition was -7.04%.
For O=C1CCc2cc(Nc3cc(OC4CCOCC4)c([N+](=O)[O-])cc3Cl)ccc2N1, the inhibition was -0.13%.
COc1cccc(CNC(=O)c2nc3scc(COCc4ccc(C(=O)O)cc4)c3c(=O)[nH]2)c1 has an inhibition of 4.23%.
For C[C@@]1(Cc2ccc(C#N)cc2)C(=O)N(c2cc(Cl)cc(Cl)c2)c2ncc(C(=O)NC3(c4nc(C5CCC5)no4)CC3)n21, the inhibition was 9.3%.

Block 4 — effect on: enzyme activity; action: inhibitor; concentration: 0.5 µM; relative to: control
SMILES: Oc1cccc(-c2nc(N3CCOCC3)c3oc4ncccc4c3n2)c1
The remaining activity was 84.6% (Calcium/calmodulin-dependent protein kinase kinase 1 (CAMKK1, Homo sapiens, UniProt Q8N5S9)).
The remaining activity was 97.1% (Insulin-like growth factor 1 receptor (IGF1R, Homo sapiens, UniProt P08069)).
For Tyrosine-protein kinase JAK1 (JAK1, Homo sapiens, UniProt P23458): remaining activity read 104%.
It gave 98.9% for remaining activity (Serine/threonine-protein kinase SIK2 (SIK2, Homo sapiens, UniProt Q9H0K1)).
Mitogen-activated protein kinase kinase kinase 20 (MAP3K20, Homo sapiens, UniProt Q9NYL2) — remaining activity: 96.2%.
The remaining activity was 88% (Dual specificity protein kinase CLK2 (CLK2, Homo sapiens, UniProt P49760)).
For Serine/threonine-protein kinase Sgk2 (SGK2, Homo sapiens, UniProt Q9HBY8): remaining activity read 96.7%.
The remaining activity was 105% (Serine/threonine-protein kinase PAK 6 (PAK6, Homo sapiens, UniProt Q9NQU5)).

A few entries again (block 4):
The remaining activity was 84.6% (Calcium/calmodulin-dependent protein kinase kinase 1 (CAMKK1, Homo sapiens, UniProt Q8N5S9)).
The remaining activity was 97.1% (Insulin-like growth factor 1 receptor (IGF1R, Homo sapiens, UniProt P08069)).
For Tyrosine-protein kinase JAK1 (JAK1, Homo sapiens, UniProt P23458): remaining activity read 104%.
It gave 98.9% for remaining activity (Serine/threonine-protein kinase SIK2 (SIK2, Homo sapiens, UniProt Q9H0K1)).
Mitogen-activated protein kinase kinase kinase 20 (MAP3K20, Homo sapiens, UniProt Q9NYL2) — remaining activity: 96.2%.
The remaining activity was 88% (Dual specificity protein kinase CLK2 (CLK2, Homo sapiens, UniProt P49760)).
